Measured values of several laboratories.
Compare with care: the assays were run in different laboratories.
Medium: plasma

`C[Si]1(C)CNC(=O)c2ccccc21` has an AUC(0-inf) of 3180 ng·h/mL (rat; oral, 5 mg/kg, single dose).
For `Nc1nc(Cl)nc2c1ncn2Cc1cc(OCC(F)F)cc(OC(F)F)c1`, the AUC(0-inf) was 23700 ng·h/mL (Sprague-Dawley rat; oral, 5 mg/kg).
For `CSCOC1C(=O)C2(C)C(OCSC)CC3OCC3(OC(C)=O)C2C(OC(=O)c2ccccc2)C2(O)CC(OC(=O)C(O)C(C=C(C)C)NC(=O)OC(C)(C)C)C(C)=C1C2(C)C` (centres unmarked), the AUC(0-inf) was 1140 ng·h/mL (male Sprague-Dawley rat; intravenous, 4 mg/kg).
For `COc1cc(NC(C)=O)c2c(c1O)-c1c(OC)c(OC)cc3c1C(C2)N(C)CC3` (centres unmarked), the AUC(0-inf) was 59300 ng·h/mL (HPLC; male Wistar rat; oral, 200 mg/kg).
`CCCN(c1ccc(C(=O)NCCC(=O)O)cc1)S(=O)(=O)c1cc(C)c(-c2ccc(C(C)(C)C)cc2)c(C)c1` has an AUC(0-inf) of 133 ng·h/mL (rat; oral, 5 mg/kg).
For `Cc1cc(N2CCC(C#N)(C3(C)CC3)C2=O)cc(C(=O)NCc2cc(F)cc(-c3cnn(C)c3)c2)n1` (racemic), the AUC(0-inf) was 4.3 µM·h (male Sprague-Dawley rat; intravenous, 0.9 mg/kg).
`NC(=O)c1cccnc1.O.O=c1[nH]cc(F)c(=O)[nH]1.O=c1[nH]cc(F)c(=O)[nH]1.O=c1[nH]cc(F)c(=O)[nH]1` has an AUC(0-inf) of 14.1 µM·h (rat; oral, 0.06 mmol/kg).
For `CNC(=O)N[C@]1(C)CCC[C@@]2(C)C3CC[C@@]4(C)C[C@]3(CCC21)CC4=O` (single isomer, unassigned), the AUC(0-inf) was 72.9 ng·h/mL (male Sprague-Dawley rat; oral, 2 mg/kg).
`CC12CC3CC(C)(C1)CC(NC(=O)Nc1ccc(C(=O)N4CCCC(C(N)=O)C4)cc1)(C3)C2` (centres unmarked) gave an AUC(0-inf) of 10.2 µM·h (Sprague-Dawley rat; intravenous, 10 mg/kg).
For `Cn1cc(-c2cc(N3CCCCS3(=O)=O)ccc2N[C@H]2CC[C@H](C)CC2)c2cc[nH]c2c1=O` (stereo in doubt), the AUC(0-inf) was 190 ng·h/mL (Sprague-Dawley rat; oral, 3 mg/kg).
`CN1CCN(c2ccc(Nc3ncc(Cl)c(Nc4ccccc4P(C)(C)=O)n3)cc2Br)CC1` has an AUC(0-inf) of 4910 ng·h/mL (male Sprague-Dawley rat; oral, 25 mg/kg).
The AUC(0-inf) of `O=C(N[C@@H](CC1CCCCC1)C(=O)N[C@@H](C[C@H]1CCNC1=O)C(=O)C(=O)NC1CC1)OCc1cccc(Cl)c1` is reported as 21000 ng·h/mL (female Sprague-Dawley rat; intravenous, 10 mg/kg, single dose).
The AUC(0-inf) of `Cn1cc(-c2cc(N3CCCS3(=O)=O)ccc2N[C@H]2CC[C@H](C)CC2)c2cc[nH]c2c1=O` is reported as 107 ng·h/mL (Sprague-Dawley rat; oral, 3 mg/kg).
With `CC12CC3CC(C)(C1)CC(NC(=O)Nc1ccc(C(=O)N4CCC[C@H](C(N)=O)C4)cc1F)(C3)C2` the AUC(0-inf) was 3.96 µM·h (Sprague-Dawley rat; intravenous, 10 mg/kg).

For quick reference, copied from above:
For `COc1cc(NC(C)=O)c2c(c1O)-c1c(OC)c(OC)cc3c1C(C2)N(C)CC3` (centres unmarked), the AUC(0-inf) was 59300 ng·h/mL (HPLC; male Wistar rat; oral, 200 mg/kg).
`CCCN(c1ccc(C(=O)NCCC(=O)O)cc1)S(=O)(=O)c1cc(C)c(-c2ccc(C(C)(C)C)cc2)c(C)c1` has an AUC(0-inf) of 133 ng·h/mL (rat; oral, 5 mg/kg).
